Assay results of several laboratories.
A part holds a random share of what one study measured.
UniProt Q9UK32, sequence (whole entry, looked up): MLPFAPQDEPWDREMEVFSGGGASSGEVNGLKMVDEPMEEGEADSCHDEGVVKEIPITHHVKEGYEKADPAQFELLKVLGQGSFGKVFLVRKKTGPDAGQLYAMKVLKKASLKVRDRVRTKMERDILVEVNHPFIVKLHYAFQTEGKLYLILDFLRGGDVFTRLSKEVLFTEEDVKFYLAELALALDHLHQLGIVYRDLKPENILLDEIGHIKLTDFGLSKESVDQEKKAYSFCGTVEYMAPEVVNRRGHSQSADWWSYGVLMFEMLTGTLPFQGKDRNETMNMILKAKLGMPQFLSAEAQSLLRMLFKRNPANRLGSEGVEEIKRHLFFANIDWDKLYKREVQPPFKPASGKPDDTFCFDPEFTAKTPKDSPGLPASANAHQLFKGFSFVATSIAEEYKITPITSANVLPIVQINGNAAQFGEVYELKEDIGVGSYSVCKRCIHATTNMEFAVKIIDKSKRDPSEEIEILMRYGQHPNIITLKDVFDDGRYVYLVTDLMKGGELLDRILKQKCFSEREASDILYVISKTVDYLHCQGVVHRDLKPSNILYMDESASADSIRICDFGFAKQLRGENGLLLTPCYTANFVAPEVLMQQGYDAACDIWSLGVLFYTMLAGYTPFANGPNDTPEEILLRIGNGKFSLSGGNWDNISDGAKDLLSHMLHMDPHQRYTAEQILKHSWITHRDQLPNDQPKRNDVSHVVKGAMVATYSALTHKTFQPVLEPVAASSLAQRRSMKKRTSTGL
UniProt P80192, sequence (whole entry, looked up): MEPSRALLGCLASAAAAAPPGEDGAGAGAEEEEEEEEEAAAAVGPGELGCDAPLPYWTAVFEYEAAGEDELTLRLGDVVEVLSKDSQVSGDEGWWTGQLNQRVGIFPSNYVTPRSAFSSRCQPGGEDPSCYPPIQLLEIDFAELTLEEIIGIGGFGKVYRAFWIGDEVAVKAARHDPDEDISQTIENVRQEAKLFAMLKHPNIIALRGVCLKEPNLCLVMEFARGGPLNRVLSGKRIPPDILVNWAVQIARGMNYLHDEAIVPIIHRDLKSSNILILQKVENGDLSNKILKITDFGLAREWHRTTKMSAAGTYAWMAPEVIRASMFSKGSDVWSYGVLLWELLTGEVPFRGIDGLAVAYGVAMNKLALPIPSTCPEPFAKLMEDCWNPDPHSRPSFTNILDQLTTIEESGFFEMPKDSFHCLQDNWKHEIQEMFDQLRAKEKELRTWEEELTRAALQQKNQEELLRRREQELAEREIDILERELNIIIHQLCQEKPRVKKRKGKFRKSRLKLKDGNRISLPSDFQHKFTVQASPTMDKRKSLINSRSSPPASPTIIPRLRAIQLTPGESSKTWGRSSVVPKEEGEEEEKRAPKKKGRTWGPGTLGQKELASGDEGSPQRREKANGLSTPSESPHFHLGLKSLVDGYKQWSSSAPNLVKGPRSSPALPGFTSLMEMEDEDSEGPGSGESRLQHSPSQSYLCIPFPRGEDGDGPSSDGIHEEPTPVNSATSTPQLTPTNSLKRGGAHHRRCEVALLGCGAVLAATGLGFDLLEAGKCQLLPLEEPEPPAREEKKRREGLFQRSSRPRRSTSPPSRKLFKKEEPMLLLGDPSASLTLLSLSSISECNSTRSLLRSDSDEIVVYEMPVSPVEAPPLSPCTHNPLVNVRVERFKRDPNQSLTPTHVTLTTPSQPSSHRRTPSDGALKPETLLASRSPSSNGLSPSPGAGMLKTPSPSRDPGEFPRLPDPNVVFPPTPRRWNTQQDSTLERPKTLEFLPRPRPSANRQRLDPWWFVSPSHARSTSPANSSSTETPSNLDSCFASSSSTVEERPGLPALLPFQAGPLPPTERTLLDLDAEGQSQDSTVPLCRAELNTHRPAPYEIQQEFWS
UniProt P54756, sequence (whole entry, looked up): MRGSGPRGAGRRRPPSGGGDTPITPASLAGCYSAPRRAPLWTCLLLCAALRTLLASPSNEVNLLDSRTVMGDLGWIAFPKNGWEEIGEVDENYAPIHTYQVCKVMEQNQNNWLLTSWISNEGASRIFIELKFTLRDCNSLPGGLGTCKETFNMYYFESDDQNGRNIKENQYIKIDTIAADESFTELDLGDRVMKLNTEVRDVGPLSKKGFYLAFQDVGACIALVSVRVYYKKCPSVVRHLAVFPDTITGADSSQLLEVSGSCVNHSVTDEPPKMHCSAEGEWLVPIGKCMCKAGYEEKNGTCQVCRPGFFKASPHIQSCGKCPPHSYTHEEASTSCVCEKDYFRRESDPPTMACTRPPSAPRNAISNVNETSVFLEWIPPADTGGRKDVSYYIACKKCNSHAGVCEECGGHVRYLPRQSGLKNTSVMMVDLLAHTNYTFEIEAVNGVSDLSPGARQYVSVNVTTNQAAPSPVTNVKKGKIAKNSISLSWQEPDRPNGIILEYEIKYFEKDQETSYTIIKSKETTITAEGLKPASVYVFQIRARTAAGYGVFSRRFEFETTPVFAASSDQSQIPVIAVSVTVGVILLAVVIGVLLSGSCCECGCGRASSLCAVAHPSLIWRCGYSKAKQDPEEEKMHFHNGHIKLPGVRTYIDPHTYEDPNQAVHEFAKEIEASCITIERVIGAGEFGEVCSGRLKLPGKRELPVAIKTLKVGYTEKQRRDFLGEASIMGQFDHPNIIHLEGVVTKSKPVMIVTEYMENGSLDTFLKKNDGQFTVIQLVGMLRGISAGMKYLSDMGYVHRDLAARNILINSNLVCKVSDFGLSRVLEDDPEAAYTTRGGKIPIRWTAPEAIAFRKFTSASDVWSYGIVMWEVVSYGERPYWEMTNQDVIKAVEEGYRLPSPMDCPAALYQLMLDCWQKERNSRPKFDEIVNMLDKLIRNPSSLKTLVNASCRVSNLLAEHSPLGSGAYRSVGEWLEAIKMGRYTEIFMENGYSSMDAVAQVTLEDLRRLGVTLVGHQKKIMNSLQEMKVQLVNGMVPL
UniProt P48729, sequence (whole entry, looked up): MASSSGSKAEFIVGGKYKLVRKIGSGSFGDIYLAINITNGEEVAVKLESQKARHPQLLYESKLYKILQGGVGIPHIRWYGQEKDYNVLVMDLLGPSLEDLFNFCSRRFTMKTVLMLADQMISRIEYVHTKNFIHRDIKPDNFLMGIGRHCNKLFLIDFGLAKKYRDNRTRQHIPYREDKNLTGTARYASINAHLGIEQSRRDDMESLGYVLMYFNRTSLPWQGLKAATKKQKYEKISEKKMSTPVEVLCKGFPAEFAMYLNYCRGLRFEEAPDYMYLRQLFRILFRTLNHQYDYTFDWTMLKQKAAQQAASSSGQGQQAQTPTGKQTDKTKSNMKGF
UniProt O15264, sequence (whole entry, looked up): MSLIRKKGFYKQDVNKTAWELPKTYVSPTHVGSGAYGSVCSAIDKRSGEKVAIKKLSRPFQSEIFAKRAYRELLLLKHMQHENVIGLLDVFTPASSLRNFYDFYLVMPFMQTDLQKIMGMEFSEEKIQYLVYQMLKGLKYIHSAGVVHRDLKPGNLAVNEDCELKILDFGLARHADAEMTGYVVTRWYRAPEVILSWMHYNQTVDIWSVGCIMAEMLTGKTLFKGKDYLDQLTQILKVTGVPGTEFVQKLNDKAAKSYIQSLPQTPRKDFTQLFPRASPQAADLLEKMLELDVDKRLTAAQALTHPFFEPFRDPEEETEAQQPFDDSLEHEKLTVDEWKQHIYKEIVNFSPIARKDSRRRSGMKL
UniProt Q9H2K8, sequence (whole entry, looked up): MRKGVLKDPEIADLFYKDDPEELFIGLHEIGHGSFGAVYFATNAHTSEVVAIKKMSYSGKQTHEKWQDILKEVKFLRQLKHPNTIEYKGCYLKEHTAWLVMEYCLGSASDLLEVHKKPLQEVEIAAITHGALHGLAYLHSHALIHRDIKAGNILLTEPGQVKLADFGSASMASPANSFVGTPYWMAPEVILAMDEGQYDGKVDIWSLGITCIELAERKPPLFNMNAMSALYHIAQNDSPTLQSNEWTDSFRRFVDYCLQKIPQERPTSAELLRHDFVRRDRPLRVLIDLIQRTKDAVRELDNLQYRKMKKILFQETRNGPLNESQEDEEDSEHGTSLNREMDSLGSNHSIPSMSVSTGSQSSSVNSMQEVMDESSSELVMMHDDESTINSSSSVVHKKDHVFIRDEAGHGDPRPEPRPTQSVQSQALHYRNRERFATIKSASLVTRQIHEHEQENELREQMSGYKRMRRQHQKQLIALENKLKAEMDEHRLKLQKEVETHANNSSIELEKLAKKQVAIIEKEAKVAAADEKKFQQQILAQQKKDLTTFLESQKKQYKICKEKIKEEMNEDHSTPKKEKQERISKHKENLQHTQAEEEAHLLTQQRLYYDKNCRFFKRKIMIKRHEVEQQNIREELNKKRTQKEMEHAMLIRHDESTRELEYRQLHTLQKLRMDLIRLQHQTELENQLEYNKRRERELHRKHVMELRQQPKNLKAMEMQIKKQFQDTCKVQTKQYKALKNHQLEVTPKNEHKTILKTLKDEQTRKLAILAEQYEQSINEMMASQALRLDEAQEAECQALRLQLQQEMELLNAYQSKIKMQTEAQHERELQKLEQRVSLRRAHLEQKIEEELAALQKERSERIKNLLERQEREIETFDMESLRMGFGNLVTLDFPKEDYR

Series 1
Compound: CCC(=O)Nc1ccc2ncnc(Nc3cccc(Br)c3)c2c1
Read-out: enzyme activity
Mode: inhibitor
Tested at: 0.5 µM
Reference: control
Endpoint: remaining activity
target = Mast/stem cell growth factor receptor Kit (KIT, Homo sapiens, UniProt P10721); result = 90.4%
target = Tyrosine-protein kinase BTK (BTK, Homo sapiens, UniProt Q06187); result = 89.4%
target = MAP kinase-interacting serine/threonine-protein kinase 2 (MKNK2, Homo sapiens, UniProt Q9HBH9); result = 55.6%
target = Interleukin-1 receptor-associated kinase 4 (IRAK4, Homo sapiens, UniProt Q9NWZ3); result = 79.8%
target = Serine/threonine-protein kinase Nek4 (NEK4, Homo sapiens, UniProt P51957); result = 94.7%
target = Protein kinase C delta type (PRKCD, Homo sapiens, UniProt Q05655); result = 93.8%
target = Tyrosine-protein kinase Lyn (LYN, Homo sapiens, UniProt P07948); result = 82.6%
target = RAC-gamma serine/threonine-protein kinase (AKT3, Homo sapiens, UniProt Q9Y243); result = 94.4%
target = Mitogen-activated protein kinase 12 (MAPK12, Homo sapiens, UniProt P53778); result = 103%
target = Serine/threonine-protein kinase WNK2 (WNK2, Homo sapiens, UniProt Q9Y3S1); result = 107%
target = Serine/threonine-protein kinase PLK2 (PLK2, Homo sapiens, UniProt Q9NYY3); result = 108%
target = Casein kinase I isoform alpha (CSNK1A1, Homo sapiens, UniProt P48729); result = 97%
target = Ephrin type-A receptor 5 (EPHA5, Homo sapiens, UniProt P54756); result = 101%
target = cGMP-dependent protein kinase 1 (PRKG1, Homo sapiens, UniProt Q13976); result = 101%
target = Mitogen-activated protein kinase 13 (MAPK13, Homo sapiens, UniProt O15264); result = 106%
target = Casein kinase II subunit alpha (CSNK2A1, Homo sapiens, UniProt P68400); result = 99%
target = Protein kinase C iota type (PRKCI, Homo sapiens, UniProt P41743); result = 106%
target = Serine/threonine-protein kinase 38 (STK38, Homo sapiens, UniProt Q15208); result = 100%
target = Mitogen-activated protein kinase kinase kinase 10 (MAP3K10, Homo sapiens, UniProt Q02779); result = 91.2%
target = Dual specificity mitogen-activated protein kinase kinase 6 (MAP2K6, Homo sapiens, UniProt P52564); result = 94.5%
target = Mitogen-activated protein kinase kinase kinase kinase 2 (MAP4K2, Homo sapiens, UniProt Q12851); result = 90.5%
target = Leucine-rich repeat serine/threonine-protein kinase 2 (LRRK2, Homo sapiens, UniProt Q5S007); result = 92.4%
target = Serine/threonine-protein kinase Chk1 (CHEK1, Homo sapiens, UniProt O14757); result = 114%
target = Cyclin-dependent kinase 9, with cyclin T1 (CDK9, Homo sapiens, UniProt P50750); result = 93.7%

Series 2
Host: mouse
Sample: microsomes or S9
Tested at: 2 µM
Time: 0.5 h
Endpoint: remaining compound
SMILES = COC(=O)c1ccc(C(=O)N2CCCN(C(=O)C[C@H](N)Cc3cc(F)c(F)cc3F)CC2)cc1; result = 79.4%
SMILES = CCOc1ccccc1CCCNS(=O)(=O)c1ccc(C)cc1; result = 4.76%
SMILES = CC(C)(C)/C(=C\n1ccnc1)c1ccc(C(C)(C)C)cc1Cl; result = 34.5%
SMILES = Cc1nc2nc(CC(=O)N3CCC(C)CC3)nn2c(C)c1Cl; result = 3.75%
SMILES = COC(=O)C1CCCN1C(=O)c1ccc(NC(c2ccc(Cl)cc2)c2ccccc2Cl)c(F)c1 (centres unmarked); result = 29.9%
SMILES = Cc1nn(C)c2ncnc(NCc3cc4ccccc4[nH]3)c12; result = 16.3%
SMILES = Cc1nnsc1C(=O)Nc1onc2c1CSC2; result = 1.52%
SMILES = Cn1c2nc3ccccc3nc2c2c(=O)n(Cc3ccccc3)cnc21; result = 26%
SMILES = O=C(CSc1n[nH]c2nc3ccccc3n12)c1ccc(O)cc1; result = 8.93%
SMILES = COCC1CCCN(c2nnc(-c3n[nH]c4c3CCCC4)n2C)CC1 (centres unmarked); result = 23.7%
SMILES = CCOc1ccc(S(=O)(=O)/N=C2/CCCCCN2)cc1; result = 7.45%
SMILES = O=C(c1nccc2ccccc12)N1CCc2cc(-c3ccno3)ccc21; result = 1.81%
SMILES = CNC1=C(c2cc(Br)ccn2)C(=O)C(c2cccc(Cl)c2)O1 (centres unmarked); result = > 100%
SMILES = CCCNC(C)C(=O)Nc1c(C)csc1C(=O)O (centres unmarked); result = 86.2%
SMILES = CC(C)(C)OC(=O)N[C@@H](CC(=O)N1Cc2ccccc2CN1C(=O)OCc1ccccc1)Cc1cc(F)c(F)cc1F; result = < 1%

Series 3
Target: Calcium/calmodulin-dependent protein kinase type II subunit alpha (CAMK2A, Homo sapiens, UniProt Q9UQM7)
UniProt Q9UQM7, sequence (whole entry, looked up): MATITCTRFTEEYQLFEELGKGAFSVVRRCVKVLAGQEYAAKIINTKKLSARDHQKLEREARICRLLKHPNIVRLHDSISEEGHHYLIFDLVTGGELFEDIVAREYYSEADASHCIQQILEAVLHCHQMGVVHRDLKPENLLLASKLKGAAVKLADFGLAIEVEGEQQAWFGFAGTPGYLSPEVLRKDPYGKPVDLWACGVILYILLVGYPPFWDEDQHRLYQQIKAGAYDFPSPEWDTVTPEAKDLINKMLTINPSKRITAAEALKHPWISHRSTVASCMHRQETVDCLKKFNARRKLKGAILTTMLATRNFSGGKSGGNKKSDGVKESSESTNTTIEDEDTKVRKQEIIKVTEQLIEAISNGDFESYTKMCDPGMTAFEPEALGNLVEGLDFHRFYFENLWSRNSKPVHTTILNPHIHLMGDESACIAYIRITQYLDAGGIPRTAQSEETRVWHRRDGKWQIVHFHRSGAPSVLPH
Read-out: enzyme activity
Mode: inhibitor
Tested at: 10 µM
Endpoint: inhibition
Structure (SMILES) = O=C(/C=C/c1ccccc1)OCc1ccccc1; result = -25%
Structure (SMILES) = O=c1cc(-c2ccccc2)oc2c(O)c(O)ccc12; result = -58%
Structure (SMILES) = CC(C)(CO)C(O)C(=O)NCCCO (racemic); result = -4%
Structure (SMILES) = CC(C)=CC[C@]12Oc3cc(O)c([C@H]4C=C(C)C[C@H](c5ccc(O)cc5O)[C@H]4C(=O)c4ccc(O)cc4O)c(O)c3C(=O)[C@@]1(O)Oc1cc(O)ccc12; result = 41%
Structure (SMILES) = O=C(NC(Cc1cc(=O)[nH]c2ccccc12)C(=O)O)c1ccc(Cl)cc1 (centres unmarked); result = -8%
Structure (SMILES) = CC(=O)C(=O)O; result = -26%
Structure (SMILES) = CC(C)=CCC[C@@](C)(O)[C@H]1CC=C(C)CC1; result = -11%
Structure (SMILES) = C[S+]([O-])CC[C@H](N)C(=O)O (some centres unmarked); result = 0.16%
Structure (SMILES) = CN(C)CCN(Cc1ccccc1)c1ccccn1; result = -9%

Series 4
SMILES: CNCc1ccccc1-c1csc([C@H](C)Nc2nc(C)nc3cc(OC)c(OC)cc23)c1
Read-out: cell-free assay
Method: competition with immobilised ligand
Tested at: 1 µM
Endpoint: remaining binding
target = Ribosomal protein S6 kinase alpha-5, N-terminal kinase domain (RPS6KA5, Homo sapiens, UniProt O75582); result = 100%
target = Epidermal growth factor receptor (EGFR, Homo sapiens, UniProt P00533, del746-750); result = 89%
target = Ribosomal protein S6 kinase alpha-3, N-terminal kinase domain (RPS6KA3, Homo sapiens, UniProt P51812); result = 100%
target = Ribosomal protein S6 kinase alpha-6, N-terminal kinase domain (RPS6KA6, Homo sapiens, UniProt Q9UK32); result = 100%
target = Ephrin type-A receptor 8 (EPHA8, Homo sapiens, UniProt P29322); result = 100%
target = Serine/threonine-protein kinase TAO3 (TAOK3, Homo sapiens, UniProt Q9H2K8); result = 75%
target = Serine/threonine-protein kinase ULK3 (ULK3, Homo sapiens, UniProt Q6PHR2); result = 88%
target = Cyclin-dependent kinase 18 (CDK18, Homo sapiens, UniProt Q07002); result = 100%
target = Mitogen-activated protein kinase kinase kinase 2 (MAP3K2, Homo sapiens, UniProt Q9Y2U5); result = 100%
target = Non-receptor tyrosine-protein kinase TYK2, JH1 (TYK2, Homo sapiens, UniProt P29597); result = 100%
target = Epidermal growth factor receptor (EGFR, Homo sapiens, UniProt P00533, T790M); result = 76%
target = Serine/threonine-protein kinase N2 (PKN2, Homo sapiens, UniProt Q16513); result = 90%
target = Mitogen-activated protein kinase kinase kinase 9 (MAP3K9, Homo sapiens, UniProt P80192); result = 100%
target = Receptor-type tyrosine-protein kinase FLT3 (FLT3, Homo sapiens, UniProt P36888, D835V); result = 88%
target = Serine/threonine-protein kinase Chk2 (CHEK2, Homo sapiens, UniProt O96017); result = 87%
target = Phosphatidylinositol 4,5-bisphosphate 3-kinase catalytic subunit alpha isoform (PIK3CA, Homo sapiens, UniProt P42336, Q546K); result = 84%
target = Serine/threonine-protein kinase 26 (STK26, Homo sapiens, UniProt Q9P289); result = 97%

Repeated from above (series 2):
SMILES = O=C(CSc1n[nH]c2nc3ccccc3n12)c1ccc(O)cc1; result = 8.93%
SMILES = CC(C)(C)OC(=O)N[C@@H](CC(=O)N1Cc2ccccc2CN1C(=O)OCc1ccccc1)Cc1cc(F)c(F)cc1F; result = < 1%
SMILES = Cn1c2nc3ccccc3nc2c2c(=O)n(Cc3ccccc3)cnc21; result = 26%
SMILES = Cc1nn(C)c2ncnc(NCc3cc4ccccc4[nH]3)c12; result = 16.3%
